Experimental data collected from several papers.
Each numbered part is a random draw from the data of one study; scales do not carry over between parts.

Study 1
Target: Histone acetyltransferase KAT6A, winged helix 1, GST fusion (KAT6A, Homo sapiens, UniProt Q92794, residues 1-85)
Technique: protein binding microarray
Molecule type: double-stranded DNA, one strand shown
Sample: in vitro
Concentration: not given
Setting: 8-mer, flanks averaged, mean of 2 arrays, mostly near background
Reference: not given
Reading: higher = stronger binding
Quantity: E-score
Target sequence (chain): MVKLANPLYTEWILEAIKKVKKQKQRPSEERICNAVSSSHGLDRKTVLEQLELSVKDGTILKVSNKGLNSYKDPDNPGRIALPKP
AGAGAGCC: 0.0226
ACAACAGA: -0.178
ATATACAG: -0.0833
ATTCATCA: -0.156
CCAGGGGG: -0.163
AGCGTCAA: 0.0947
TGCGCCCA: 0.0464
GCTTAAGA: 0.0799
GGCCAGAA: -0.129
AGGGAGAT: -0.215
CCCTTCCA: -0.117
ATGTTCGG: -0.0117
CGGCCCAC: 0.216
AGCTGTGC: -0.129
AAAAGCAT: -0.118
ACCGACGC: 0.418
CGAGTTCC: -0.0528
AGTAGAAT: -0.184
AATTATCC: 0.0273
CATGATAA: -0.114
CTCCGCAA: 0.0667
CGGGGCAG: 0.271
GGTGAGCA: -0.163
GAGCAGGC: 0.0336
GTTCGTGA: -0.101

Study 2
Target: RNA binding protein fox-1 homolog 2, RRM domain, GST-SBP tag (RBFOX2, Homo sapiens, UniProt O43251-10, residues 100-194)
Technique: RNA Bind-n-Seq
Molecule type: RNA
Sample: in vitro
Concentration: 365 nM
Setting: natural RNA segment, single round, ends assumed
Reference: no-protein control
Reading: higher = stronger binding
Quantity: RBNS enrichment (R)
Target sequence (chain): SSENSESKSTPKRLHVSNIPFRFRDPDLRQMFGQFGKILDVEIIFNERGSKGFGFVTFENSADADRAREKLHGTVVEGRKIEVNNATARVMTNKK
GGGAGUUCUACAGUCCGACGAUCAACCUGCUUGAAAAAGGCAACGUGUUCUUCACAGUGCUCUCCUGUAAGGACAACGCGGCUCAGUCAGCAGCUGGUUAUGGCCCGGGAAGACAGGAUGCAGACAACGCUCAUGGAAUUCUCGGGUGCCAA: 0.231
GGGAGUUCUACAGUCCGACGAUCAGAGGCACCGGCGAUGAAGUGGCACAGCCCCAGUCGGAAUCCAGCGGCUUCUGAAAGUGCCUUGGUGUGAGAAGGAGGAAGGGGCCGCUUGGAGAGCUGGGCUCUCGCAUUGGAAUUCUCGGGUGCCAA: 1.13
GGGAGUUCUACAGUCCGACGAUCAUGAAGAAGUUCAACCUGGAGAGAUGGAAAAUCAGCUCUCAUAACUAAGUUAAUUUAGUAUAAAAAUAGAAUUGAUAGUGAGGGUAUAAAGUGUAACCAUCAGUUAAACCUGGAAUUCUCGGGUGCCAA: 0.459
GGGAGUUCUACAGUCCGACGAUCCGCAAGUGUAUCUGUUAGUACACUCUGCAAGAGGACUGGACUGCUGGCCUAGGUAUAUGGAUCUCACGCCUCUUGGGGAGACAGAUUGCAAAAAUGGGUUCCCUGCAUGUUGGAAUUCUCGGGUGCCAA: 11.6
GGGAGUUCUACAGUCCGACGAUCCCCUGGCUCGGAGCCCAGGGCAGAGGCAGCUCAGAGUGGAGGCUCUAGGCAGGUUUGACAAAGGUCAGUAAUACGGUUUCCCCUGGGGUUGACCAGAUGUUCCAAAAUAUUGGAAUUCUCGGGUGCCAA: 0.697
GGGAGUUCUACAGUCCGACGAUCGAGCUGCUGCUGGUCCCCCCUUCUGACGUGCAAUGCAAAAGGGACAUCAUGUAUACGCAGCAUUUAUUUGGAGUUUUUCCUUUGGCUUUUUUUCCUCUCUUUUUCAGUUAUGGAAUUCUCGGGUGCCAA: 0.524
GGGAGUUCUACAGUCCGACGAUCGACAUUAAGUAAAAUUUGGAAUCAUAAGUUGCAAUGCAGUAAAAUGGUGCUGGGGAAGGAGCCAGUUAGUGUUUCUGUGAGUUUGUGUUGUGAUGCAAUAAGAGAUAAGUUGGAAUUCUCGGGUGCCAA: 1.84
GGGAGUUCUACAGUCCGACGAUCUAUUGUUGUUUCUCAUCAUUCUCACCUCGAGGAAGAGCAAGAGACUUAACCAGCAGGGCAAAUUCCACUUGCAGACAUCCUUUACUCUGUGGUCCCUUGUUAGUACCGAAUGGAAUUCUCGGGUGCCAA: 0.288
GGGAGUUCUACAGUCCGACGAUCAACCCAUGUCUGACUUAGUGCUGCCUGUGUUGGUAAGAGUCAGCAAGUGCCCUUAGGAAGCCACACGGAGGGGAUGCUGGGAGUCCUGACAUAUGAAUCUAUUUAUUAUGUGGAAUUCUCGGGUGCCAA: 1.06
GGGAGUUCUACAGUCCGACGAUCCCGUAACUGGAAUCUUCAUAGGUCAUAUUGAAAUCUUCAAGGUGACCAUGCCCCACCGGGGUGCUGGGGCAGUAGUCAUGGCAGACUCCCGGCCUGGGCCCCCAGGAUUCUGGAAUUCUCGGGUGCCAA: 0.31
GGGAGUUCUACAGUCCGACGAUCUCUCAAUGUUCCAAGAGGUUCUGGCCUUCAGGGUCACAGGCAGUAGGGGGACAGCAUAAGGUCUAUGUAAAACCCUUCCCUCUCUGACCCUCUGUUUUCAAAUCUGUAAAUGGAAUUCUCGGGUGCCAA: 0.304
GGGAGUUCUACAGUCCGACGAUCGAAUAAUUUAAAUGUGAGGAAAGAUAUCUGUGGUAGACAUGUCCUUCCAUGACUAAUUUCUAAUUGUAACUCAACACACAUUGAGGUAUGGGCCCUCCUCAGUGACUUUAUGGAAUUCUCGGGUGCCAA: 0.31

Study 3
Target: Interferon regulatory factor 5, full length, phosphomimetic (IRF5, Homo sapiens, UniProt Q13568-2, residues 1-514, S451D/S453D/S456D/S462D)
Technique: protein-binding microarray
Molecule type: double-stranded DNA, one strand shown
Sample: in vitro
Concentration: 940 nM top
Setting: 60-bp whole probe
Together with: salmon DNA 0.4 mg/ml
Reference: random background probes
Reading: higher = stronger binding
Quantity: fitted relative affinity
All sequences stand within: GCCTAGCAC … GTCTTGATTCGCTTGACGCTGCTG
TTAGGTATCGGTCTCGGTTTGTGCTAG: 9.92 z-score
GAAGGTTTCCTTATCCTGACGTGCTAG: 1.16 z-score
CACGGTTTCGACTATCGGGACGTGCTA: 7.44 z-score
AATGAGGCACTGAGAGCAGAGTGCTAG: -0.72 z-score
CCAAGTTTATACCTTAGGTTGTGCTAG: -0.119 z-score
TGGAATTTCCCTCTCCCCTCGTGCTAG: 0.179 z-score
GACTATTTCAGTTCCGAGACGTGCTAG: 0.727 z-score
GACGATATCAGTGTCGAGACGTGCTAG: 0.00434 z-score
GACGGACTAGACACTGGGGACGTGCTA: -0.253 z-score
TACGGACTGGGGACTGGGGACGTGCTA: -0.359 z-score
TCAGGACTCAGGTCTCCCACTGTGCTA: -0.00884 z-score
GACGATATCCTTCTCCTGACGTGCTAG: 0.451 z-score
GACGATCTCACTTTCGAGACGTGCTAG: 2.34 z-score
TGGGAGCTCAGGAATCCCACGTGCTAG: -0.575 z-score
AACTTGGCAGGAGCGAATGGGTGCTAG: -0.561 z-score
GACGGTATCGACACTGGGCACGTGCTA: 3.54 z-score
ATAGGTTTCCTTTCCCTTTAGTGCTAG: 1.81 z-score

Study 4
Target: Sal-like protein 4, full length isoform B (SALL4, Homo sapiens, UniProt Q9UJQ4-2, residues 1-616)
Technique: universal PBM
Molecule type: double-stranded DNA, one strand shown
Sample: in vitro
Concentration: not given
Setting: 8-mer, flanks averaged, mean of replicates
Reading: higher = stronger binding
Quantity: E-score
AATTATGC: 0.358
GGCACATA: 0.127
CATCTAGG: -0.0539
ACCTTACT: 0.201
CGTTTTAA: 0.104
AGGGCTAT: -0.109
ACGGGGTA: -0.322
CACAAGTA: 0.0737
AGATCTTC: -0.0341
ACGCCCAG: -0.234
ACCACAGG: -0.0888
ACGACACA: 0.0588
CACCCCCA: -0.00412
CCAGGACA: -0.194
ATTTCCGG: -0.0302
GGCAAGTA: -0.0135
ATGTCGCA: 0.0213

Some of these lines once more (study 4):
AATTATGC: 0.358
CCAGGACA: -0.194
CGTTTTAA: 0.104
AGGGCTAT: -0.109
CACCCCCA: -0.00412
ACGGGGTA: -0.322
CACAAGTA: 0.0737
CATCTAGG: -0.0539
